# Measurements gathered from unrelated publications.
# Numbered parts are unrelated; each lists some results of a single study.
# Chain of UniProt Q13233 (whole entry, looked up): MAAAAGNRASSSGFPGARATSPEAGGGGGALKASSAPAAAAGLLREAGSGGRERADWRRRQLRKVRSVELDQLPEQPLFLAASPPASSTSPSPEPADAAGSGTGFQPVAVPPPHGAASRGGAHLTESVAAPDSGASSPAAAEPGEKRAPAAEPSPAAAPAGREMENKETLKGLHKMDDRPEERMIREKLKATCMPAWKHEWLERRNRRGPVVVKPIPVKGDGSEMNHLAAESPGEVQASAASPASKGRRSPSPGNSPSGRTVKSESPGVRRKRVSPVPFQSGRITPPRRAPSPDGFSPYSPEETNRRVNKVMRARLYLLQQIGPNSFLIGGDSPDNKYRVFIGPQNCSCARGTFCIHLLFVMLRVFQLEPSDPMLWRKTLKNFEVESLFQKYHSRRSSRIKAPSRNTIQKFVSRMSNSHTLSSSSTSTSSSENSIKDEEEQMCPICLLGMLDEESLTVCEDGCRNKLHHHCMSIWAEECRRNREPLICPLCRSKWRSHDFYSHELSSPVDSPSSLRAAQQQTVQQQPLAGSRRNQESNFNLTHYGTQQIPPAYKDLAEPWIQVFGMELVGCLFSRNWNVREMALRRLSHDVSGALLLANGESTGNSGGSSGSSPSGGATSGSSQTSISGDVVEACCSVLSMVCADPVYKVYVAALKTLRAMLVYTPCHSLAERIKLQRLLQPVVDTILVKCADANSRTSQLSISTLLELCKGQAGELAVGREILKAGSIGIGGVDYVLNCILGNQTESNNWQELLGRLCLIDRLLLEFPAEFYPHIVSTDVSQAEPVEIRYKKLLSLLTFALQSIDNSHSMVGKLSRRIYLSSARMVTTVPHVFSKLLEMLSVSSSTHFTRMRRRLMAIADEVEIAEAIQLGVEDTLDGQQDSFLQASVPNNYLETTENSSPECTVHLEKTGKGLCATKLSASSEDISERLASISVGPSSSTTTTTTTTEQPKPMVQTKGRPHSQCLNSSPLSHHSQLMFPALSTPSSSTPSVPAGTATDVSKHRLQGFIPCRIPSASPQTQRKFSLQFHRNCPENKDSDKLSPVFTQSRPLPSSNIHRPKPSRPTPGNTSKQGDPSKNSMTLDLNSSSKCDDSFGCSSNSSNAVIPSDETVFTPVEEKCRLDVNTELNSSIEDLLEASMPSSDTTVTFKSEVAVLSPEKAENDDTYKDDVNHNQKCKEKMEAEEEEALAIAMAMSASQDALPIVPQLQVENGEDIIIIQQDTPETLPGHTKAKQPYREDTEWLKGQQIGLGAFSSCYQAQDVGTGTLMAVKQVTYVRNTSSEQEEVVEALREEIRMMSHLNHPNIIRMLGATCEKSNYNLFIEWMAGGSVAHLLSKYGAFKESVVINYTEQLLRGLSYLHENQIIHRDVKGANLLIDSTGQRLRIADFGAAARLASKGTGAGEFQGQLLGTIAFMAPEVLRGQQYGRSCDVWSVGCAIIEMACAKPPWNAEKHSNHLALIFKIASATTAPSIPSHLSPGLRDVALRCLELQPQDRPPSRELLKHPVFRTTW
# Chain of UniProt Q8N5S9 (whole entry, looked up): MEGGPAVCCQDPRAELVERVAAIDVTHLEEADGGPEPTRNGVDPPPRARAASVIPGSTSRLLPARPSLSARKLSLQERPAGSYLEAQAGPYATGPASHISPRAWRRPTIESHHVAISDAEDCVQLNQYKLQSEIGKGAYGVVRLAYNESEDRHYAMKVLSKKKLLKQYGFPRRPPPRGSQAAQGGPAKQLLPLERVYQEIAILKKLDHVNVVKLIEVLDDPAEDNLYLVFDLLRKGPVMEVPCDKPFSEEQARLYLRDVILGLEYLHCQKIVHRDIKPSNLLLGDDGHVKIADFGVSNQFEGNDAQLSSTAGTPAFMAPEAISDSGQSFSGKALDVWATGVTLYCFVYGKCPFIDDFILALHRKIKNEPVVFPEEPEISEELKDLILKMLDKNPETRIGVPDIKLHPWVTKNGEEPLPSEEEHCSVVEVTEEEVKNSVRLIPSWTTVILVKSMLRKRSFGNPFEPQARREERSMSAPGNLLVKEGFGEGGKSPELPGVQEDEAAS

# Block 1
# Target: Hepatocyte nuclear factor 3-beta, forkhead domain (FOXA2, Homo sapiens, UniProt Q9Y261, residues 142-269)
# Technique: protein-binding microarray
# Molecule type: double-stranded DNA, one strand shown
# Medium: in vitro
# Tested at: not given
# Notes: k-mer, scored over probes, only values ≥0.25
# Reading: higher = stronger binding
# Target sequence (chain): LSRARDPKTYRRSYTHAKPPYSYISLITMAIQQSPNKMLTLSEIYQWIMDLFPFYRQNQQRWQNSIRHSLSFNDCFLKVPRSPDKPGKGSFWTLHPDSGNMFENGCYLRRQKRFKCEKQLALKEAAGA
Sequence,E-score
CCTTATTA,0.306
ATATTTGG,0.273
AACTACAC,0.254
AGACAGAT,0.259
ATGTTTGG,0.298
GTGTGTTA,0.326
CAATTCAC,0.251
AAAAATAT,0.305

# Block 2
# Target: UBE2Q2 UBC core domain (UniProt Q8WVN8)
# Chain of UniProt Q8WVN8 (whole entry, looked up): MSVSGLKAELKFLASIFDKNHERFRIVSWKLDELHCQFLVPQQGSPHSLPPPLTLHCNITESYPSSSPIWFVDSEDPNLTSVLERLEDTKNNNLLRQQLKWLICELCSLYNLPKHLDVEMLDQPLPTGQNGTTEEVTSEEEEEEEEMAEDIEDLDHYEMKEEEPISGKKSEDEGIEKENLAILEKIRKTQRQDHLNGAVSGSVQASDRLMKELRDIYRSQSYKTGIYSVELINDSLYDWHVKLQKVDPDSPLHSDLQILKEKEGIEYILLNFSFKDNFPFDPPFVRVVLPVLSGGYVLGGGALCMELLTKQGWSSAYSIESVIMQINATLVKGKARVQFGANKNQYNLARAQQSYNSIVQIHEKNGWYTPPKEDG
# Technique: yeast two-hybrid
# Medium: yeast
# Notes: mostly zero background
# Relative to: not given
# Reading: higher = stronger interaction
# B1: RNF14 RING domain (UniProt Q9UBS8); chain IKCFNSKLFLCSICFCEKLGSECMYFLECRHVYCKACLKDYFEIQIRDGQVQCLNCPEPKCPSVATPGQVK
# B2: RNF150 RING domain (UniProt Q9ULK6); chain DKETESDFDNCAVCIEGYKPNDVVRILPCRHLFHKSCVDPWLLDHRTCPMCKMNILKALGIP
# B3: RNF43 RING domain (UniProt Q68DV7); chain SGSSCSSAPVCAICLEEFSEGQELRVISCLHEFHRNCVDPWLHQHRTCPLCMFNITEGDSFS
# B4: TRIM3 RING domain (UniProt O75382); chain VQPMDKQFLVCSICLDRYQCPKVLPCLHTFCERCLQNYIPAQSLTLSCPVCRQTSILPEQGV
# B5: PHF7 RING domain (UniProt Q9BWX1); chain IQHGHVGEESCILCCEDLSQQSVENIQSPCCSQAIYHRKCIQKYAHTSAKHFFKCPQCNNRKEFPQEML
Sequence,lacZ reporter activity
B1 (RNF14 RING domain),0
B2 (RNF150 RING domain),0
MANWVFCNRCFQPPHRTSCFSLTNCGHVYCDACLGKGKKNECLICKAPCRTVLLSK (RNF212 RING domain (UniProt Q495C1)),0
B3 (RNF43 RING domain),0
B4 (TRIM3 RING domain),0
FLKKLEQSFMCVCCQELVYQPVTTECFHNVCKDCLQRSFKAQVFSCPACRHDLGQNYIMI (UHRF2 RING domain (UniProt Q96PU4)),0
KRQCSDVDDICSICQAEFQKPILLICQHIFCEECMTLWFNREKTCPLCRTVISDHINKW (RNFT1 RING domain (UniProt Q5M7Z0)),0
B5 (PHF7 RING domain),0

# Mixed results
# SGK2: Serine/threonine-protein kinase Sgk2 (SGK2, Homo sapiens, UniProt Q9HBY8)
# Chain of UniProt Q9HBY8 (whole entry, looked up): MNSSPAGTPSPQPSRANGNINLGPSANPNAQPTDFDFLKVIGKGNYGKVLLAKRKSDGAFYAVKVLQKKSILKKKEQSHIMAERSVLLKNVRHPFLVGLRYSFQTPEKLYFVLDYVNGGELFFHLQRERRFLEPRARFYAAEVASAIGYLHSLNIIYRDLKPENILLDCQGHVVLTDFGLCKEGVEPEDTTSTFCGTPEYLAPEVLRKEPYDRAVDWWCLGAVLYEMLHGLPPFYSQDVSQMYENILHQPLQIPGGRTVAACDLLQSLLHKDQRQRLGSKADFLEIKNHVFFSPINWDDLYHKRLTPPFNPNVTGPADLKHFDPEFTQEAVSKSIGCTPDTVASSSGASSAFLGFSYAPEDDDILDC
SMILES,target or system,test,test system,setting,how to read,measurement,value
O=C(O)[C@H]1[C@H](Cn2nnc3ccccc3c2=O)CC[C@@H]1C(=O)c1ccc(OCCC2CCOCC2)cc1,"Mitogen-activated protein kinase kinase kinase 1 (MAP3K1, Homo sapiens, UniProt Q13233)","cell-free assay, competition with immobilised ligand",,1 µM,,remaining binding,100%
Ic1cccc(CSc2nnc(-c3ccncc3)o2)c1,SGK2,"enzyme activity, inhibitor",,0.5 µM,relative to: control,remaining activity,102%
O=C1CCc2cc(Nc3cc(OC4CCOCC4)c([N+](=O)[O-])cc3Cl)ccc2N1,"Calcium/calmodulin-dependent protein kinase kinase 1 (CAMKK1, Homo sapiens, UniProt Q8N5S9)","cell-free assay, competition with immobilised ligand",,1 µM,,remaining binding,100%
Nc1cccc(-c2cc3c(Oc4cccc(O)c4)ncnc3[nH]2)c1,SGK2,"enzyme activity, inhibitor",,0.5 µM,relative to: control,remaining activity,96.2%
CCC[C@H]1NC(=O)CSC[C@@H](C(=O)OCC)N(C)C(=O)[C@H](CC(C)C)NC(=O)[C@@H](C)N(C)C(=O)[C@H](CC(C)C)NC(=O)[C@H](C)N(C)C(=O)[C@H]2CCCN2C(=O)[C@H](CC(C)C)NC(=O)CN(C)C1=O,,,hydrocarbon/water,,,logD,0.689

# Repeated from above (block 1):
Sequence,E-score
AGACAGAT,0.259
